Assay results of several laboratories.
Numbered parts are unrelated; each lists some results of a single study. Positions count from the first letter of the parent shown.

Block 1
Target: CCNE1, cyclin fold, Cln2 fusion (human)
Method: yeast growth competition, sequencing
Matrix: yeast
Notes: strong parent motif
Reference: not given
Reading: higher = stronger binding
Starting sequence: INSM1 docking peptide (human); PKAIRKLHFEDEV
Change | normalised enrichment score
K2G | 4.95
E10T | 3.34
K2V | 2.97
E12C | 4.57
E12D | 4.79
E12T | 3.75
I4S | 1.97
K6L | 1.13
R5P | 0.0865
A3V | 5.76
H8V | 5.49
F9W | 0.905
E10H | 2.59
H8D | 4.61
R5D | 0.151
K2P | 3.91
K6M | 3.01
K2N | 4.67
I4D | 0.0515
E10R | 1.53
D11L | 3.3
E12Y | 3.75
K2C | 4.51
R5F | -0.0157
L7E | -0.0737

Block 2
Target: Sal-like protein 4, full length isoform A (SALL4, Homo sapiens, UniProt Q9UJQ4, residues 1-1053)
UniProt Q9UJQ4, sequence (whole entry, looked up): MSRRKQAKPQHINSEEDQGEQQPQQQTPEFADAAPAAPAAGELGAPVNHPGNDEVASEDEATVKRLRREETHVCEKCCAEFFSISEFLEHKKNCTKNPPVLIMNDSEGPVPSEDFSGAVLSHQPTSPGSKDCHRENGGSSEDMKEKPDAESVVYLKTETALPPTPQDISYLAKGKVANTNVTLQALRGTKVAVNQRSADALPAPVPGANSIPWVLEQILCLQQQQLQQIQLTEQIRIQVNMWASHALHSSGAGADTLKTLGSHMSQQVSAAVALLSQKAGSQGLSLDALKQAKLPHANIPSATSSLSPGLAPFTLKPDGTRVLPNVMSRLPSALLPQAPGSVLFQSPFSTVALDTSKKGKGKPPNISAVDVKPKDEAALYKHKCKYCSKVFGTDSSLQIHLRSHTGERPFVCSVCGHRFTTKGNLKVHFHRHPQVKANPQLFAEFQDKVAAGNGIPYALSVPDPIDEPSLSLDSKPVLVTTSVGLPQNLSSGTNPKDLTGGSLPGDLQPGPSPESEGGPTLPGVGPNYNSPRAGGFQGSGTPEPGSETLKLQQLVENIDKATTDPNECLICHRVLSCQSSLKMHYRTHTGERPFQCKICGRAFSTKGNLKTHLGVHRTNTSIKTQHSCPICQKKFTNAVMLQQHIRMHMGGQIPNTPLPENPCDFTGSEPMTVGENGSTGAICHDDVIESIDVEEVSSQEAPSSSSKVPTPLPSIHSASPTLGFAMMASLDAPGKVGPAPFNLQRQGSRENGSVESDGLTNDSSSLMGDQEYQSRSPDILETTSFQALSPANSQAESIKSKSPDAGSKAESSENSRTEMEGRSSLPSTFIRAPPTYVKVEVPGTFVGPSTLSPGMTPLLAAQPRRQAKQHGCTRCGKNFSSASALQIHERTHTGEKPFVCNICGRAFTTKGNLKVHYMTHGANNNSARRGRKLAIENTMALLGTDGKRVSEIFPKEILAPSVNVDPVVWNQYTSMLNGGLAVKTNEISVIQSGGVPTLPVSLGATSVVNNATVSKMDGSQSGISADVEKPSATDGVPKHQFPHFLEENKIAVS
Method: universal PBM
Molecule type: double-stranded DNA, one strand shown
Matrix: in vitro
Concentration: 600 nM
Notes: 8-mer, flanks averaged, mean of replicates
Reading: higher = stronger binding
Sequence | E-score
CATCTGTC | -0.105
GTGCTCCA | -0.202
CACCGTGG | -0.316
TACCCCGA | -0.0994
CGATCCCA | -0.188
GCAGCAGA | -0.184
ACAAGAAA | 0.223
AACGATCC | -0.131
CCACGGAC | -0.267
AGTATCCC | -0.202
CGAGGTGC | -0.147
CGCTCAGC | -0.174
AACGTGTG | 0.0761
GACGCAAA | -0.19
CTGCCCAG | -0.348
AGTGCAGG | -0.239
AGGTCCCA | -0.181
AAACGTAG | 0.0208
AAAGTGTG | 0.0635

Block 3
Target: Interferon regulatory factor 5, full length, phosphomimetic (IRF5, Homo sapiens, UniProt Q13568-2, residues 1-514, S451D/S453D/S456D/S462D)
Method: protein-binding microarray
Molecule type: double-stranded DNA, one strand shown
Matrix: in vitro
Concentration: 940 nM top
Notes: 60-bp whole probe
Added: salmon DNA 0.4 mg/ml
Reference: random background probes
Reading: higher = stronger binding
Shared flanks, not repeated: GCCTAGCAC … GTCTTGATTCGCTTGACGCTGCTG
Sequence | fitted relative affinity [z-score]
GACGGTTCCCTTTTCCTGACGTGCTAG | 0.921
TTAGGACTGGGGGCTGGGTTAGTGCTA | 1.56
GACGAACTGAGAATCGAGACGTGCTAG | -0.161
TTAGTACTGGGGACTGGGTTAGTGCTA | -0.102
TCCATTTTCTGAATGCTACTGTGCTAG | 0.505
GACGTTCTCAGACTGGAGACGTGCTAG | -0.0927
TTAGATTCTAGTTTCGATTAGTGCTAG | 9.25
TTAGAACTGGGGTTTCGACTAGTGCTA | 2.51
GACGGACTGGACTATCTGGACGTGCTA | -0.398
TTTTTTTTTTTTTTTTTTACGTGCTAG | 1.54
TCAAGAATGCCTTTAATACTGTGCTAG | -0.116
GACGGTATCGACTATCGGGAAGTGCTA | 5.12
TTAGAAGTGAGTATCGATTAGTGCTAG | 4.31
TTAGGTTTCCTTTCCCTTTCGTGCTAG | 1.93
TTAGTTTCCGGTTTCGGTTAGTGCTAG | 10.3
GAGACTCTAATATTGAGACTGTGCTAG | 0.586
GAGGGTTTCGGTATCGGGACGTGCTAG | 11.1
TTAAATTCCAGTTTCGATTAGTGCTAG | 9.62
TCACTTTTCTTTTCTTTACTGTGCTAG | 2.34
ATGAGTCTCAATATTAGAGTGTGCTAG | 2.02
TCAACTTGGAATTTCCCACTGTGCTAG | -0.125
TTAGGTATCGGACTGGGTTTGTGCTAG | 3.45
GGGCCCTGCTGGGAAGTCAGGTGCTAG | -0.553
GACGATTTCGGGTATCGACACGTGCTA | 1.64
TTAGGACTGTGTATCGGTTAGTGCTAG | 1.43

Block 4
Target: RNA binding protein fox-1 homolog 2, RRM domain, GST-SBP tag (RBFOX2, Homo sapiens, UniProt O43251-10, residues 100-194)
Method: RNA Bind-n-Seq
Molecule type: RNA
Matrix: in vitro
Concentration: 365 nM
Notes: natural RNA segment, single round, ends assumed
Reference: no-protein control
Reading: higher = stronger binding
Shared flanks, not repeated: GGGAGUUCUACAGUCCGACGAUC … UGGAAUUCUCGGGUGCCAA
Construct (chain): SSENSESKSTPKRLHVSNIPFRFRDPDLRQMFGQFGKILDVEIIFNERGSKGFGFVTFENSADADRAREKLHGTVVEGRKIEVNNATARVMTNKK
Sequence | RBNS enrichment (R)
GGAGGAUUGUCUGUUUGGCUGACACAGCAGCAGCCCUUCCCACCCAGCCACCUUCCUCACAGGGACUAGGAGGCUCAGUCCCCAACGGCUGGCAAGACUCAGGGUCCUCA | 0.316
UCCAGCCAGACUUCAGGAUCUGUUGCAGGAGUUGGACUCACUGUGGGAAAAGCAGCGUUCCCUCUCCUUAAGCCACAGGCAGAUUGUGUAAAACAGGAACAGCAGCGGCU | 0.296
AGUGCAGAACUUUUACCAGGCUGUAAAAGCAAAACCUCGUAUCAGCUCUGGAACAAUACCUGCAGUUAUUCUUCAGCUGUUUGGACAACUUAGAUUGGGUUUAUAACUAU | 0.419
UUUUUUGCAAUUAAGGCAGGCAUUUGCCAAUGUCUUCUUUUAAGCAGUAGUUGGAAACAUCUCAAUUACAGUGUAACACCUUAGAGCUAAAAACAUUUGUUCAACACAAA | 0.229
AUGCUCGAAAGUCAGUGAAAGCUAUGCCUUCUCAUGCUAGCCCAGCCCAGCCCACCCUGCGACUGGUUCUUGGUUUAAUAAACACAUGUAAGAGUUCUUUCCACCACUGA | 0.311
UCCAAAUGACCUCUAUCAGCUGUUGAGUCAGACAGAUCCACGGACAUGUCUACCAAAAAAUGAUGUGGAGGUUUAGGUGGGAUUCACCCUUAGUACAAUUCUUAGUGUCA | 0.361
UUUUUGGUGUUGAAGGGAAUCAAACUACAUUUGCUGCUUGUGUGCGUGUGCAUUUGUGAACACGUACAGCAUAUCUAUACAAAAUUCUGCUAUAGUGUGAAAAUCAGGGC | 2.86
UUCUGAACUACACUGCAUUGUUGUGCCGAGAACACCGAGCACUGAACUUUGCAAAGACCUUCGUCUUUGAGAAGACGGUAGCUUCUGCAGUUAGGAGGUGCAGACACUUG | 0.417
AUAGCCUAUUUUGAACCAUUUGAACUGUAGAAAAAUGGCAAAUAUAUACUUACAUGUAUGUUCUUAAGAGAAAAACUAGGUACCCAUAGUGCACGUUUGAUUAGGAGUGU | 14
AGGCACGCUCCUGUCCUCCUCAUUGCCCAGCAGUAGGGAGGGGCAGGGGUAAGGGGACCUGAGGAUAAAGGGUGGGGAAACAGGGUCCCCUGAGGCCUGUGGGGGCUGCA | 1.15
UGAUUUGAUAGUCUUGAUCUAAAAAUAAUGUUUUGUUAAUAUGUCACUAAAUUUCUAAAAACUGUAUUCAUGGGCUGCUGAGAUGGCUCACAAGAAAAGCACUUGCUGCC | 0.618
AUCUCAGUAGACUAAACUCCAGCCCAUUUUUUAAAUGUGAGCAUGUGCUUUGCCAUCCAGUGUGGGUUUUGUUUUGGUUUAGGUUUUGUUUUUUGUUUUUCAAGAUAGGG | 6.74

Block 5
Target: ABI1, truncated, D143A, DHFR fusion (Arabidopsis thaliana)
Method: DHFR PCA, deep sequencing
Matrix: yeast
Notes: methotrexate growth selection, single substitutions
Added: (+)-ABA 17 µM
Reference: wild-type fitted maximum
Reading: higher = stronger binding
Starting sequence: PYL1, truncated, DHFR fusion (Arabidopsis thaliana); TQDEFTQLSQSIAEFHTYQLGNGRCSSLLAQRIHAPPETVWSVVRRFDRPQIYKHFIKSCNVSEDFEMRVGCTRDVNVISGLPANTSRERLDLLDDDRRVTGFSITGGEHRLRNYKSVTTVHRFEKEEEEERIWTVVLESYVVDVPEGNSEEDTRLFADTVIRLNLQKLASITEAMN
Change | relative binding score [%]
P36M | 60.8
L156K | 47.7
C72E | 75.2
E38S | 72.2
E174D | 27.5
I33G | -4.44
A13I | 66.6
Q10C | 77.6
D97R | 83.3
V40F | -25.8
S63A | 91.1
R46P | 15.1
F47M | -9.71

Block 6
Target: Histone acetyltransferase KAT6A, winged helix 2, GST fusion (KAT6A, Homo sapiens, UniProt Q92794, residues 85-181)
Method: protein binding microarray
Molecule type: double-stranded DNA, one strand shown
Matrix: in vitro
Concentration: not given
Notes: 8-mer, flanks averaged, mean of 2 arrays, mostly near background
Reference: not given
Reading: higher = stronger binding
Target sequence (chain): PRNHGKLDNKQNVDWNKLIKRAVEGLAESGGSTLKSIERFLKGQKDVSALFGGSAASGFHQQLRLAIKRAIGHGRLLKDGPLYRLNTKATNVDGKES
Sequence | E-score
CGATCGAG | 0.239
CAAGAGAC | -0.13
AGACAGAC | 0.0432
CATAGTCC | -0.0603
ACCAAGTG | -0.153
GCAGGTGA | 0.0699
TACCTCCA | -0.0136
CTTGATGC | 0.0903
AGTTAGTC | -0.171
GTATCATA | 0.211
AGGATCAT | -0.0505
AAGAAAAT | 0.156
CGCCAGGC | 0.154
ACGCATGA | 0.0113
GATTGAGC | 0.114
CGACATTC | -0.135
ACTCCCGG | 0.0381
GACCCGTA | -0.0118
AGTGGACA | 0.0708
GCGCTCCA | 0.16

Further values, each from its own experiment
Substance | target | test | test system | conditions | how to read | endpoint | result
PhoQ, residues 284 288 289 292 302 303 QWGLFV | PhoP, residues 12 14 15 18 19 VQALL (Escherichia coli, UniProt P23836) | Sort-seq, refers to: YFP reporter | E. coli | PhoQ-PhoP variant library, added: 10 µM Mg2+ | reference: high Mg2+ state, higher = stronger signaling | fold induction | 6.4

For quick reference, copied from above (block 1):
Change | normalised enrichment score
F9W | 0.905
E10H | 2.59
H8D | 4.61
R5D | 0.151
K2P | 3.91
K6M | 3.01
K2N | 4.67
I4D | 0.0515
E10R | 1.53
D11L | 3.3
E12Y | 3.75
K2C | 4.51
